Assay results pooled from the literature.
Compare with care: the assays were run in different laboratories. ± gives the spread as reported.
HCRTR1: Orexin/Hypocretin receptor type 1 (HCRTR1, Homo sapiens, UniProt O43613)
Chain of UniProt O43613 (whole entry, looked up): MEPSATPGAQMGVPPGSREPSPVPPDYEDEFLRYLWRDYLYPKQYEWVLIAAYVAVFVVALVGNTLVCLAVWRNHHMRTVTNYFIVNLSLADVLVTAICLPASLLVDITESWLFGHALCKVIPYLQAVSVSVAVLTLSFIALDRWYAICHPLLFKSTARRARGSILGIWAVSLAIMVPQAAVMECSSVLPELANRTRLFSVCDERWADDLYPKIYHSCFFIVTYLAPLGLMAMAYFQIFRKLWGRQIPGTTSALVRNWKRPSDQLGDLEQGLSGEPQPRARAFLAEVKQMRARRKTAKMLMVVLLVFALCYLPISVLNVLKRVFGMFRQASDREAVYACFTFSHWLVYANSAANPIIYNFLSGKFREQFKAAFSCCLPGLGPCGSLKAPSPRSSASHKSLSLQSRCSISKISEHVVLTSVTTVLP

The AUC(0-inf) of `CO[C@H]1C[C@@H]2CC[C@@H](C)[C@@](O)(O2)C(=O)C(=O)N2CCCC[C@H]2C(=O)O[C@H]([C@H](C)C[C@@H]2CC[C@@H](O)[C@H](OC)C2)CC(=O)[C@H](C)/C=C(\C)[C@@H](O)[C@@H](OC)C(=O)[C@H](C)C[C@H](C)/C=C/C=C/C=C/1C` is reported as 1810 ng·h/mL (human, whole blood; oral, 30 mg, without grapefruit juice).
The AUC(0-inf) of `CC(C)=CCC[C@](C)(O[C@@H]1O[C@H](CO[C@@H]2O[C@H](CO)[C@@H](O)[C@H](O)[C@H]2O)[C@@H](O)[C@H](O)[C@H]1O)[C@H]1CC[C@]2(C)[C@@H]1[C@H](O)C[C@@H]1[C@@]3(C)CC[C@H](O[C@@H]4O[C@H](CO)[C@@H](O)[C@H](O)[C@H]4O[C@@H]4O[C@H](CO)[C@@H](O)[C@H](O)[C@H]4O)C(C)(C)[C@@H]3CC[C@]12C` is reported as 194000 ± 28900 ng·h/mL (Sprague Dawley rat, male, plasma; oral, 86 mg/kg, in frozen ginseng extract).
`O=C1N=C(N2CCOCC2)CN1c1ccc(Cl)cc1` has an AUC(0-inf) of 64500 ng·h/mL (beagle dog, male, plasma; oral, 30 mg/kg, tablets, fed).
`CC(C)=CCC[C@](C)(O[C@@H]1O[C@H](CO)[C@@H](O)[C@H](O)[C@H]1O)[C@H]1CC[C@]2(C)[C@@H]1[C@H](O)C[C@@H]1[C@@]3(C)CC[C@H](O)C(C)(C)[C@@H]3[C@@H](O[C@@H]3O[C@H](CO)[C@@H](O)[C@H](O)[C@H]3O)C[C@]12C` gave an AUC(0-inf) of 1200 ± 300 ng·h/mL (Sprague Dawley rat, male, plasma; oral, 25 mg/kg, pure ginsenoside mixture in water).
The Kb of `COc1cc2c(cc1OC)C(CC(C)C)N(CC(=O)NCc1ccccc1)CC2` (stereo not shown) is reported as over 10000 nM (HCRTR1; calcium signal, antagonist, fluorescence).
`CNc1nc(Nc2ccc(-n3cnc(C)n3)c(OC)c2)nc2c1CC[C@H]2c1ccc(F)cc1` has an AUC(0-inf) of 982 ng·h/mL (human, plasma; oral, 30 mg, single dose, healthy volunteers).
With `Cc1nc2cccc(OCC(C)(C)C(=O)NC(C)C)c2c(N)c1C(=O)O` the AUC(0-24 h) was 250 ng·h/mL (male Sprague-Dawley rat, plasma; oral food admix, 30 mg/kg/day, day 7, 90-day dietary study).
With `CCCC[C@H](NC(C)=O)C(=O)N[C@H]1CCC(=O)NC[C@@H](C(=O)N[C@@H](Cc2c[nH]c3ccccc23)C(N)=O)NC(=O)[C@H](CCCNC(=N)N)NC(=O)[C@@H](Cc2ccccc2)NC(=O)[C@H](Cc2c[nH]cn2)NC1=O` the AUC(0-inf) was 1080 ng·h/mL (CD Sprague Dawley rat, male, plasma; subcutaneous, 1.0 mg/kg daily, day 1).
With `C=CC(N)CCC(=O)O` (stereo not shown) the AUC(0-inf) was 17700 ± 533 ng·h/mL (male Sprague-Dawley rat, plasma; oral, 10 mg/kg, formulation 8, added: infant formula 1500 mg/kg).
`CC(C)[C@H](NC(=O)[C@@H]1CCCN1C(=O)[C@H](CCCNC(=N)N)NC(=O)[C@H](CS)NC(=O)[C@H](Cc1c[nH]c2ccccc12)NC(=O)[C@H](CCCNC(=N)N)NC(=O)[C@@H](Cc1ccccc1)NC(=O)[C@H](Cc1c[nH]cn1)NC(=O)[C@H](CCC(=O)O)NC(=O)[C@H](CS)NC(=O)[C@H](CS)NC(=O)[C@H](CCCCN)NC(=O)[C@@H]1CC(=O)N[C@@H](CCCNC(=N)N)C(=O)N[C@@H](C)C(=O)N[C@@H](CC(=O)O)C(=O)N[C@H](Cc2ccc(O)cc2)C(=O)N1)C(N)=O` [technetium-99m labelled] has a tissue uptake of 0.72 ± 0.18 %ID/g (C57 mice, muscle; intravenous, 0.037 MBq, 0.5 h).
With `CC(C)=CCC[C@](C)(O[C@@H]1O[C@H](CO)[C@@H](O)[C@H](O)[C@H]1O)[C@H]1CC[C@]2(C)[C@@H]1[C@H](O)C[C@@H]1[C@@]3(C)CC[C@H](O[C@@H]4O[C@H](CO)[C@@H](O)[C@H](O)[C@H]4O[C@@H]4O[C@H](CO)[C@@H](O)[C@H](O)[C@H]4O)C(C)(C)[C@@H]3CC[C@]12C` the AUC(0-inf) was 20300 ± 4700 ng·h/mL (Sprague Dawley rat, male, plasma; oral, 42 mg/kg, in red ginseng extract).
The AUC(0-inf) of `CC(C)NC[C@@H](C(=O)N1CCN(c2ncnc3c2[C@H](C)C[C@H]3O)CC1)c1ccc(Cl)cc1` is reported as 808 ng·h/mL (human, moderate hepatic impairment (Child-Pugh), plasma; oral, 100 mg single dose, geometric mean).
With `CCN(CC)c1cc(CC2c3cc(OC)c(OC)cc3CCN2CC(=O)NCc2ccccc2)ccc1OC` (stereo not shown) the Kb was 208 nM (HCRTR1; calcium signal, antagonist, fluorescence).
